Experimental data of several laboratories.
Numbers after ± are the reported error.

SMILES	cell line	test	setting	scale	measurement	value
O[C@@H]1[C@@H](O)[C@H](Nc2cc3cccnc3c3ncccc23)OC[C@H]1O	HFF-1 and PC-3	MTT	48 h, dark	reference: IC50 HFF-1 over IC50 PC-3	selectivity ratio	10
Cc1cccc(-c2[nH]c(CNc3ccccc3F)nc2-c2ccc3ncnn3c2)n1	MM1.S	XTT	2 µM	reference: untreated	viability	17%
COc1cnc2cccc(N3CCc4c(cc(Cn5ccnc5C)cc4-c4cn(C)nc4C(F)(F)F)C3=O)c2c1	BICR56	cell growth	120 h	–	EC50	> 30 µM
CCC(C)n1ncn(-c2ccc(N3CCN(c4ccc(OCC5COC(Cn6cncn6)(c6ccc(Cl)cc6Cl)O5)cc4)CC3)cc2)c1=O (stereo not shown)	HD-MB03	cell growth	168 h, DMSO	–	IC50	1700 nM
Cn1cc(-c2ccc(-c3cncc(Cl)c3N3CCC4(CCNC4=O)CC3)cc2)cn1	COLO 205	gene expression, microarray, item: CASP1 mRNA	concentration not given, 2 h	reference: untreated cells	log2 fold change	-1.05
O=C(/C=C/C=C/C=C/C1CCCCC1)NC1=C[C@@](O)(/C=C/C=C/C=C/C(=O)NC2=C(O)CCC2=O)[C@@H]2O[C@@H]2C1=O	HGC-27	cell growth, CellTiter-Glo	78 h	–	GI50	17.5 µM
COc1c(C)cnc(Cn2cnc3c(Cl)nc(N)nc32)c1C	HD-MB03	cell growth	168 h, single agent	–	IC50	142 nM
CCn1cc(-c2cc(Cn3ccnc3)cc3c2CCN([C@H](c2cc(OC)ccn2)C2CC2)C3=O)c(C(F)(F)F)n1	KMS-26	cell growth, inhibitor	120 h	–	EC50	10.3 µM
CC(C)(c1ccc(O)cc1)c1ccc(O)cc1	HepG2 spheroids	Hoechst flow cytometry	10 µM, 96 h	–	G2 phase cells	13.7 ± 1.95%
CCCCc1oc2ccc(NS(C)(=O)=O)cc2c1C(=O)c1ccc(OCCCN(CCCC)CCCC)cc1	human embryonic stem cell aggregates	mRNA level, microarray, item: OLIG3	0.5 µM, 120 h	reference: untreated, up-regulated	fold change	7.2 fold
CC(C)C[C@H](NC(=O)[C@H](Cc1ccccc1)NC(=O)c1cnccn1)B(O)O	HD-MB03	cell growth	168 h, single agent	–	IC50	7.8 nM
COC(=O)C1CCN(C(=O)c2cccc(NCc3cnc4nc(N)nc(N)c4n3)c2)CC1	786-O	high-content imaging, item: MitoTracker Red uptake	10 µM	–	mitochondrial toxicity	10.1 ± 12.3%
O=c1[nH]nc(OCCCc2ccc(Cl)cc2)c(NCc2cccnc2)c1Br	HEK293T	RNA-seq, item: HSPB1 mRNA	10 µM, 6 h	reference: vehicle	log2 fold change	-0.375
CC[C@]1(O)C[C@H]2CN(CCc3c([nH]c4ccccc34)[C@@](C(=O)OC)(c3cc4c(cc3OC)N(C=O)[C@H]3[C@@](O)(C(=O)OC)[C@H](OC(C)=O)[C@]5(CC)C=CCN6CC[C@]43[C@@H]65)C2)C1	HD-MB03	cell growth	168 h, single agent	–	IC50	10.4 nM
CCn1cc(-c2cc(Cn3ccoc3=N)cc3c2CCN([C@@H](C)c2cc(OC)ccn2)C3=O)c(C(F)(F)F)n1	Calu-6	cell growth, inhibitor	120 h	–	EC50	1.09 µM
CC(=O)N1CCC(Nc2cc(C(=O)NC[C@H](O)CN3CCc4ccccc4C3)ncn2)CC1	HD-MB03	cell growth	168 h, DMSO	–	IC50	126 nM
O=C(O)CCNC(=O)c1ccc(/N=N/c2ccc(O)c(C(=O)O)c2)cc1	primary rat hippocampal/cortical neuron-glia cultures	–	1 µM, together with: 1 µM α-synuclein oligomers	–	reversal of trafficking deficit	-18.5%
Cc1[nH]c2ccccc2c1CCNCc1ccc(/C=C/C(=O)NO)cc1	HD-MB03	cell growth	168 h, DMSO	–	IC50	16.1 nM
Cc1cc(C)nc(SCC(=O)Nc2ncc(Cc3cccc(OCc4cn(Cc5ccc(OCCN6CCOCC6)cc5)nn4)c3)s2)n1	HGC-27	cell viability, MTS	10 µM	–	inhibition	60.3 ± 6.6%

Excerpt of the above:
SMILES	cell line	test	setting	scale	measurement	value
CC[C@]1(O)C[C@H]2CN(CCc3c([nH]c4ccccc34)[C@@](C(=O)OC)(c3cc4c(cc3OC)N(C=O)[C@H]3[C@@](O)(C(=O)OC)[C@H](OC(C)=O)[C@]5(CC)C=CCN6CC[C@]43[C@@H]65)C2)C1	HD-MB03	cell growth	168 h, single agent	–	IC50	10.4 nM
CC(C)(c1ccc(O)cc1)c1ccc(O)cc1	HepG2 spheroids	Hoechst flow cytometry	10 µM, 96 h	–	G2 phase cells	13.7 ± 1.95%
